Measurements gathered from unrelated publications.
Every numbered part comes from another study and shows a few of its results, in no order. Positions count from the first letter of the parent shown.

Study 1 — target: OGT, full length, His-tagged (human); technique: phage display, sequencing; matrix: in vitro; concentration: 1 µg OGT; baseline: input library; reading: higher = stronger binding
Setting: single substitutions, 15-mer displayed peptide, unchanged parent 5.27
Parent: peptide; GDFPVMFMPKYSIIY; partner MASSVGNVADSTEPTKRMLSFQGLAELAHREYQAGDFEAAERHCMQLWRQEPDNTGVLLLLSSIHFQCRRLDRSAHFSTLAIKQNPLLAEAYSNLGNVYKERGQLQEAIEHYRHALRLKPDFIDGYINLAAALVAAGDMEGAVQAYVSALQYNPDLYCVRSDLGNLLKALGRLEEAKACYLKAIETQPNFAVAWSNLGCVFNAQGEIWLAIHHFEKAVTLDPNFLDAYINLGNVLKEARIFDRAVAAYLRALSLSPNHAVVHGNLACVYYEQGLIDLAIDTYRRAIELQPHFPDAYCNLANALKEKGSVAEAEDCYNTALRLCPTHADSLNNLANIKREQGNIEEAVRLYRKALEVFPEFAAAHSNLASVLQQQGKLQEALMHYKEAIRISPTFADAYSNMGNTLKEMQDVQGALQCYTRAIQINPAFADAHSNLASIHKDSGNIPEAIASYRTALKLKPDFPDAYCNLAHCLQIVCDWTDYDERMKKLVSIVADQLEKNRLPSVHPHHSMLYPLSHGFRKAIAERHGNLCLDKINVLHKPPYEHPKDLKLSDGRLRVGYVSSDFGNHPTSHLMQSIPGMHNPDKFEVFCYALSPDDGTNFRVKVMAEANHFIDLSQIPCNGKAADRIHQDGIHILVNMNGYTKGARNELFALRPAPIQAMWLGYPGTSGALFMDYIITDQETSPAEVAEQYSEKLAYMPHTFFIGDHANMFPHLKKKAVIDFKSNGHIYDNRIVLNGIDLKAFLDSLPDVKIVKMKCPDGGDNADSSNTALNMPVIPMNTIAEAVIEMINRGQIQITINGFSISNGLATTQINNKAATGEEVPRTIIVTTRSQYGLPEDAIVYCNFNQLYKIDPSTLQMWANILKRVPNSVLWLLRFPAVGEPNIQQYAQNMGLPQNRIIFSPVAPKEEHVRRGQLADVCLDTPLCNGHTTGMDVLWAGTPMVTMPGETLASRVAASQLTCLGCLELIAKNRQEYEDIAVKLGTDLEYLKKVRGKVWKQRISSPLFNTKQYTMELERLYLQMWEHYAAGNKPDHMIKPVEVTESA
Substitution | fold enrichment
I13K | 0.901 fold
F3E | 4.44 fold
Y11I | 6.19 fold
K10S | 1.25 fold
Y15M | 2.58 fold
Y15D | 0.989 fold
Y15P | 1.33 fold
K10V | 2.21 fold

Study 2 — technique: RNA Bind-n-Seq; form: RNA; matrix: in vitro; concentration: 20 nM; setting: 6-mer, flanks averaged, single round; with: 150 mM LiCl; baseline: input library; reading: higher = stronger binding
Target: TAR DNA-binding protein 43, full length, His tag (TARDBP, Homo sapiens, UniProt Q13148, residues 1-414)
Strand | 6-mer enrichment (R)
CUGUUA | 0.978
CCUAAA | 0.857
CGGGUC | 0.935
GUGAUU | 1.07
AUCGGU | 0.904
CUAGUG | 1.03
GCUCCU | 0.964
CGAUAU | 0.85

Study 3 — target: CCNE2, cyclin fold, Cln2 fusion (human); technique: yeast growth competition, sequencing; matrix: yeast; setting: strong parent motif; baseline: not given; reading: higher = stronger binding; parent: viral docking peptide; YKVKRRLVFGADD
Substitution | normalised enrichment score
YKVKRRLVFGYDD [A11Y] | 5.25
YKVHRRLVFGADD [K4H] | 1.35
YKVKRRLVFGLDD [A11L] | 5.6
YEVKRRLVFGADD [K2E] | 5
YKVKRRLVFSADD [G10S] | 5.06
YKVKRRLVFGAQD [D12Q] | 5.51
YKIKRRLVFGADD [V3I] | 2.97
YKVKRRTVFGADD [L7T] | 0.405
YKVKRRLVFDADD [G10D] | 6.12
YKVKRRLSFGADD [V8S] | 5.11
YLVKRRLVFGADD [K2L] | 5.19
YKVKRNLVFGADD [R6N] | 1.07
YKVKRMLVFGADD [R6M] | 2.35
YKVKRRLVPGADD [F9P] | 0.47
YKVKRRVVFGADD [L7V] | 0.555
YKVKWRLVFGADD [R5W] | 1.01
YKVKRRWVFGADD [L7W] | 0.616
YKVKMRLVFGADD [R5M] | 0.589
YKVKRDLVFGADD [R6D] | 0.278
YKVKRRLVFGAAD [D12A] | 5.22
YWVKRRLVFGADD [K2W] | 3.4
YKVKRRLVFGAHD [D12H] | 5.53
YKAKRRLVFGADD [V3A] | 4.8
YKVKRRLVFGAID [D12I] | 5.33

Study 4 — technique: RNA Bind-n-Seq; form: RNA; matrix: in vitro; concentration: not given; setting: RNA with constant flanks, ends assumed; baseline: input RNA pool; reading: higher = stronger binding
Target: RING finger protein unkempt homolog, zinc fingers 1-6, GST-SBP tag (UNK, Homo sapiens, UniProt Q9C0B0, residues 30-357)
Sequence of UniProt Q9C0B0 (30-357, looked up): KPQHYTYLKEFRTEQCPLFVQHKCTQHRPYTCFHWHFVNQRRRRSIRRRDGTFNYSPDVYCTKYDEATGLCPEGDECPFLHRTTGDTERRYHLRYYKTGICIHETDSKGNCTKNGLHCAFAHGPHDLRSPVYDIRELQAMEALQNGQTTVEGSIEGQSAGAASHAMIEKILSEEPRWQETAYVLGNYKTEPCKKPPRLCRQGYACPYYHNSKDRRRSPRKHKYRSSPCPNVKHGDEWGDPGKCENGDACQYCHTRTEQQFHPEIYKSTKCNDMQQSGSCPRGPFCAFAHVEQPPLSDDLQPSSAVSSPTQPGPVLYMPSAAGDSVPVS
Strand | bound/input enrichment [ratio]
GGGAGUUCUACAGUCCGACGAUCUUUAUUGCAGCAGUUGACCUAGAUGAGAUGUCGUUCACUUUUACUGAGCUACAGAAAAACACCGAAAUCAGUGUCCAUAAAUUCUUUAACUUACUAAAAGAAAUUGAUACCAGUACCAAACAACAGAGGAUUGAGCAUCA | 0.196
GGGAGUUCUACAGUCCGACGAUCUUAAUAAUAGGAAAAGGAGGUGAAACCAUAAAAAGCAUAAGCCAGCAGUCUGGUGCAAGAACCGAACUUCAGAGAAAUCCUCCACCAAAUGCAGAUCCUAAUAUGAAGUUAUUUACAAUUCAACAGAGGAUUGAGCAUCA | 0.271
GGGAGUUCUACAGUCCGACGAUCUAUGCAGGUGCCUUGAGAGCUUCAGGGGAAAUGGCUUCAGCGCAGUAUAUUACUGCAGCCCUCCGAGAUUUGUUUGAUUCCAUGGAUAAAACUUCUUCCAGUAUUCCACCUAUUAUUCUACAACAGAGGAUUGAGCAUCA | 0.47
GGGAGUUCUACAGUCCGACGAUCAGUGGGAACAUUACUUUUGAUGAGAUUGUCAACAUUGCCCGGCAGAUGAGACACCGGUCUUUGGCCCGAGAACUUUCUGGAACUAUCAAGGAGAUCCUGGGUACUGCACAGUCUGUGGGCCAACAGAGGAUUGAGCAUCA | 0.112
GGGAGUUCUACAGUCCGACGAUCAAACUCAGAGAGACCUUGACUUUCUUUGAUGAGCUUGAAAACAUCGGCAGAUAUCAAGGAACCCGUAACUUUAGGGAGAGUUUGGCAUCCCUGGUCCAGAGCUGCAGAAAACUUCAGAGCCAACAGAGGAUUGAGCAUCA | 0.192
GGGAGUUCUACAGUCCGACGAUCGAUACAAAAAACAAGGAUGGAGUUCUGGUGGAUGAAUUUGGAUUGCCACAGAUCCCUGCUUCACCGAUUUGCAUCAUUCAAGCAUAUCUUGUAAAACAAACACAUAUUAUGGGACUAGGACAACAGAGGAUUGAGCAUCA | 0.34
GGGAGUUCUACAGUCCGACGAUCUCUUCAGAUAUGAAAAUGACUCAGCUAUUCACCAAAGUUGAAUCAGAAGAUACAAGCCGCCUCUUUGACAAACUUAAGAAGGAACCUGAUGCUUUAACUUUGCUGGCCCCAGCCGCUGGACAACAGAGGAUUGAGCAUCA | 0.31
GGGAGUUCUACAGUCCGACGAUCGUAAGAUUCAUCUCCCGGUUAUGCCCUCCUGGAAAGCCCUUCCCAACAUAUUAUGUUGUCCACCGAGGGAAAAAUGAGCAAAGACAGAUGGCUUAACUCUGGUGUGUGACUAAGAUAUAGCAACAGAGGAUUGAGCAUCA | 0.506
